Results gathered from unrelated publications.
Numbered parts are unrelated; each lists some results of a single study.

Study 1 — technique: protein binding microarray; molecule type: double-stranded DNA, one strand shown; medium: in vitro; concentration: not given; reference: not given; direction: higher = stronger binding
Target: Histone acetyltransferase KAT6A, winged helix 1, GST fusion (KAT6A, Homo sapiens, UniProt Q92794, residues 1-85)
Setting: 8-mer, flanks averaged, mean of 2 arrays, mostly near background
Residues (chain): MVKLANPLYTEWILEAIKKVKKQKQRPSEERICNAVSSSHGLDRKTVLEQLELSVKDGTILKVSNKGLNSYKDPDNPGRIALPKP
Sequence	E-score
AATCATCC	-0.155
GCACGGCC	0.387
CCGCTCCG	0.37
GAAGCAAC	-0.2
CTCTGGAC	-0.152
GCTCTTTA	0.0208
AGACTGAA	-0.183
AAGATGAA	-0.144
CGCCGTAA	0.456
CTATTTAA	-0.0436
CTAGCTGA	-0.215
AATCGGCC	0.201
ACGTCCCA	-0.216
AACAGGGG	-0.26
AGCGGCCA	0.22
TTCATCAA	-0.111
AAGCCGAG	0.091
CTAAGTAG	-0.255
AACATTTC	-0.177

Study 2 — technique: RNA Bind-n-Seq; molecule type: RNA; medium: in vitro; concentration: 365 nM; reference: no-protein control; direction: higher = stronger binding
Target: RNA binding protein fox-1 homolog 2, RRM domain, GST-SBP tag (RBFOX2, Homo sapiens, UniProt O43251-10, residues 100-194)
Setting: natural RNA segment, single round, ends assumed
Construct (chain): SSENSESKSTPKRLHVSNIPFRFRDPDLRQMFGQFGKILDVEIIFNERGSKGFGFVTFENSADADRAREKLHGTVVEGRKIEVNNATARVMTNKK
Sequence	RBNS enrichment (R)
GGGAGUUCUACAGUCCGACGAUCUAGUAGAGCUGUCAGAAGAAGGCCACCGUCCUCCAGACAUCAGAAUGGUAUAUCCACUGACAGCUUGCACCAUGCACCUGGAAAAGCCACAGACACUCAACGCCAGCCUGUGGAAUUCUCGGGUGCCAA	0.353
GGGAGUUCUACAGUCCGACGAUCCACAGCCCCGUGAACCCUGAGGAGUGGAGUCAUACGCGAAGGGUGUGUGGCCAGGCUGCAGAGCUGCGUGCCGUUUGUGUCCGAGCAUCACGUGUGGCUCCAGCCCUUGUUGGAAUUCUCGGGUGCCAA	0.353
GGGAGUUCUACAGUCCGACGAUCGCAUUUUAUGUACAAAACAGAAGUCAAUGCAACAGUAUGUAUGUGUGCCUGUGUGUGUAUAAAAAUAACCAUUGAAGCUAACUUGCUAAUGUACUUAGGCAAGCCACUUCUGGAAUUCUCGGGUGCCAA	1.22
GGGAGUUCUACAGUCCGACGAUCGGGGAAAGGGGUCGGCUGACCAUGCUCAUCUGCUGGUCCGUGGGACGGUGCCCAAGCCAGAGGCUGGGUUCAUUUGUGUAACGACAAUAAACGGUACUUGUCAUUUCGGGUGGAAUUCUCGGGUGCCAA	0.407
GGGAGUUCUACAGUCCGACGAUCCCUGUGGCCAUGAAGUCGUCUCCUGCCUCGAUGUCAGUGAAUCCGGCACCUUCCUAGGCCUGGGCACAGUCACUGGCUCUGUUGCCAUCUACAUAGCUUUCUCUCUCCAGUGGAAUUCUCGGGUGCCAA	0.299
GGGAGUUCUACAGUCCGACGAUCGUGGUGGCUCACACCUGUAAUCUCGGCACUUUGGGGGGCUGAGACAGGCGGAUCACCUGAGGCCAGGAAUUCAAGACCAGCCUGGCCAACAUGGUGAAACCCUAUCUCCAUGGAAUUCUCGGGUGCCAA	0.28
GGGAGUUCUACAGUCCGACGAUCCCGCUCCUUGCUGCUACACGGGGUAGGAGGACAUACAAAUAAUUGCUUCUCGUUCUUAGCAGGGAUGAACAGGCACACUGAGGUGAACAUCUGGCCCAAAUGAAGCAUACUGGAAUUCUCGGGUGCCAA	0.661
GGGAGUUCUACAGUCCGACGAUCCCCACCUACCCCAGAUCUACAGCUUUUUAGCUUUUAAUUUGAAUCAUCUGCAUAGUUGCUUGGAUCAUUGUUACAUCAGUUCAGCGCAUAGUAGCAAUUCUGGUGUGGCCUGGAAUUCUCGGGUGCCAA	0.426

Study 3 — technique: RNA Bind-n-Seq; molecule type: RNA; medium: in vitro; concentration: not given; setting: RNA with constant flanks, ends assumed; reference: input RNA pool; direction: higher = stronger binding
Target: RING finger protein unkempt homolog, zinc fingers 1-6, GST-SBP tag (UNK, Homo sapiens, UniProt Q9C0B0, residues 30-357)
Target sequence (chain): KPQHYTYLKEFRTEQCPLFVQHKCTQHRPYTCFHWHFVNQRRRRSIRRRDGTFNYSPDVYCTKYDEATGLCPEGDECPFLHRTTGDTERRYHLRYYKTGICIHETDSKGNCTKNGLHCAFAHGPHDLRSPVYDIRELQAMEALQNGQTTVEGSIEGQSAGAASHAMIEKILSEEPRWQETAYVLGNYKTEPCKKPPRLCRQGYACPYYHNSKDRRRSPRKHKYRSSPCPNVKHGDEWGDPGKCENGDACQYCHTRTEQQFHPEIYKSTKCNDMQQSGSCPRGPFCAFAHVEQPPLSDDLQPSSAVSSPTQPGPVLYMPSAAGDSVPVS
Sequence	bound/input enrichment [ratio]
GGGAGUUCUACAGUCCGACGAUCAUUCCCAAUGCUACACAACCAGAAAGUAAGGUGUUCUACUUGAAAAUGAAAGGAGAUUAUUUCCGGUAUCUUUCUGAAGUGGCAUCUGGAGACAACAAACAAACCACUGUGUCGAACUCCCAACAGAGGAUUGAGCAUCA	0.162
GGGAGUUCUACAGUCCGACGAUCAGGAAAUGCUGCAAUCAUCCGUAUCUUAUCAAAGGUGCUGAGGAGAAAAUACUUGGAGAAUUCCGAGAUACAUACAAUCCAUCUGCCUCUGAUUUUCAUCUGCAAGCAAUGAUCCAAUCUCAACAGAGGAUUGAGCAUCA	0.111
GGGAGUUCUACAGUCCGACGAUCUCUCCCCCACCUCCUCCUCCUCCAGAAGAUUACGAAGAGGAGGAAGCUGCUGUGGUUGAGUACCGUGAUCCUUAUGCUGAAGAGGACCCACCGUGGGCUCCACGUUCUUACUUGGAAAAGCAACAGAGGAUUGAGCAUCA	0.0885
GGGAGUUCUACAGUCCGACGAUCAAUGAAGGAACACUGGAUGAUUUUACAGUUAUAAACAGACGCAAAAAGGUAGCCAGCAAUGCCGCAUCAGCAGUGAAAAGGCCAUUUCAUUUCAUGGCAAAUUUUCCUUGUCCACCAUCACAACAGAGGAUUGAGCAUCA	0.209
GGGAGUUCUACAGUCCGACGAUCAAUCUCUGCAAGCUCAUGAAGGAGAUCUUGGACAAGAAGGUUGAAAAGGUGACAAUCUCCAACCGGCUUGUGUCUUCACCCUGCUGCAUUGUGACAAGCACCUAUGGCUGGACAGCCAACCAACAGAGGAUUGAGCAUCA	0.127
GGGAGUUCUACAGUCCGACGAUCGCUGCCCUUUCUGUUCGUAAUCUUUCACCUUAUGUUUCCAAUGAACUGUUGGAAGAAGCCUUCCGCCAAUUUGGUCCUAUUGAAAGGGCUGUUGUAAUAGUGGAUGAUCGUGGAAGAUCUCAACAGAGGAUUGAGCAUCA	0.147
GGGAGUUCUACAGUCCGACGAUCUGUGAUCAUGCCAAUCCACAGCUUUCAAAUCCAAGUCCGUUUCAGACACUUGGGCUGGAUUCCGUAUUGGAAUGUGUCGCUAGGUACCAACCCAAGCAGCGUUCAAUGUUUACCUUUGUGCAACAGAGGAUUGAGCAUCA	0.124
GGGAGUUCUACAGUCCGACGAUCUUUCCUCACAAAUGUGAAGUCUGUGAUAAAGGUUUUCAUCGUCCUUCAGAGCUUAAAAAACACCGUGAUAUUCAUAAGGGUAGGAAGAUUCACCAGUGUAGGCAUUGUGACUUUAAAACCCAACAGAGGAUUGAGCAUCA	0.214

Study 4 — technique: RNAcompete; molecule type: RNA; medium: in vitro; concentration: 20 nM; setting: 7-mer, probes averaged, single round; reference: mean of 7-mers; direction: higher = stronger binding
Target: PABPC1L2, full length, GST fusion (mouse, UniProt A0ABA7IW68)
Target sequence (chain): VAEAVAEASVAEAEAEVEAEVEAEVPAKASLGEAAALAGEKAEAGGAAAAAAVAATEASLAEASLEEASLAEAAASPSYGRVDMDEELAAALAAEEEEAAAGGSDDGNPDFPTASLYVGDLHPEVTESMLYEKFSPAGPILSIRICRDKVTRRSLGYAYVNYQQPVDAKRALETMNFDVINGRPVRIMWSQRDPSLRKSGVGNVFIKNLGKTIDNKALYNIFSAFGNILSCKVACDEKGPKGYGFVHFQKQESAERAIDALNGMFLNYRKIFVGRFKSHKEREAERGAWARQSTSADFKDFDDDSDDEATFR
Sequence	7-mer Z-score
CCCCGGA	-0.356
CAGAGCG	-0.0754
UGUAGGC	-0.0645
CCUAGCC	-0.291
GUAAACG	-0.012
CACUGCU	-0.258
AGGUAUG	-0.0772
GACAGGA	0.0823
UGAAUCA	-0.0174
ACAUCUA	-0.0391
GAUCAAU	0.0334
AUUUUUG	-0.0301
CGCAAUC	-0.0536
UUGGCAA	0.532
GGCUUAU	-0.0319
CAACUCA	-0.255
UUCUCCC	-0.338
CGGCGAG	0.075
AGUGGUG	-0.0409
AACAAUC	0.55
CCAGAGU	-0.195
AAGCCUG	-0.0554
GAGAAGA	0.276
AUCGCGC	-0.249
CCCGCGC	-0.427
